# Assay results collected from several papers.
# Values joined by “and” are separate records of one study, mostly repeats; a detail may differ.
# CDK7: Cyclin-dependent kinase 7 (CDK7, Homo sapiens, UniProt P50613)
# CDK7 with cyclin H: Cyclin-dependent kinase 7, with cyclin H (CDK7, Homo sapiens, UniProt P50613)
# CDK7 with cyclin H, MAT1: Cyclin-dependent kinase 7, with cyclin H, MAT1 (CDK7, Homo sapiens, UniProt P50613)
Molecule,target,test,system,conditions,scale,endpoint,result
CN1CCN(Cc2ccc(NC(=O)c3cccc(C#Cc4cnc(N)c5ncccc45)c3)cc2C(F)(F)F)CC1,CDK7,"cell-free assay, competition with immobilised ligand",,50 nM,,remaining binding,58%
O=c1cc(-c2cccc(O)c2)oc2c1ccc1occc12,CDK7 with cyclin H,"enzyme activity, inhibitor, ADP detection",,10 µM,,inhibition,63.8%
Nc1ncc(-c2cc(-c3cnn(CC(F)(F)F)c3)ncc2F)nc1C(=O)NC1CNCC(F)C1 (centres unmarked),CDK7,enzyme activity,,1 µM,reference: DMSO control,remaining activity,53.8%
Cc1ccc(-c2c(/C=C(\C#N)C(=O)NC(C)C)n(CCCO)c3ncnc(N)c23)cc1,CDK7,"cell-free assay, competition with immobilised ligand",,1 µM,,remaining binding,100%
CCn1cc(C(=O)O)c(=O)c2c(N)c(F)c(NC3CCCCC3)cc21,CDK7 with cyclin H,kinase activity,,"0.1 µM, with: ATP at Km",,inhibition,2.2%
O=c1c(-c2ccc(Cl)c(CN3CCOCC3)c2)coc2cc(O)ccc12,CDK7,"enzyme activity, inhibitor",,1 µM,,remaining activity,110%
C=CC(=O)N1CCCC(n2c(=O)c3ncccc3n(Cc3ccc(Oc4ccccc4)cc3)c2=O)C1 (centres unmarked),CDK7,"cell-free assay, competition with immobilised ligand",,1 µM,,remaining binding,85%
Cc1cnc2nc1Nc1cccc(c1)COC/C=C/COCc1cc(ccc1OCCN1CCOCC1)N2,CDK7,binding,,0.1 µM,,remaining binding,100%
CN1CC[C@@H](COc2cnc(C#N)cc2-c2ccn3nc(NC(=O)C4CC4)cc3c2)C1,"CDK7 with cyclin H, MAT1","inhibitor, KinaseProfiler panel",,1 µM,,inhibition,0%
N[C@H]1CC[C@H](Nc2nccc(-c3cccnc3Oc3ccc(NC(=O)NC4CC4)c4ccccc34)n2)CC1,CDK7,kinobead competition pulldown,HEK293/HCT116 lysate mixture,"10 µM, 1 h, 4 °C",lower = stronger competition,log2 LFQ intensity,18.6 and 21.6 and 19 and 22.2
COc1c(Cl)cccc1Nc1c(-c2ccncc2C#C[C@@]2(C)CCCN2C(=O)/C=C/CN(C)C)[nH]c2c1C(=O)NCC2,CDK7,"binding, competition with immobilised ligand",,3 µM,,remaining binding,92%
C=CC(=O)N1Cc2nc(-c3cc(-c4cc(Cl)cnc4Cl)c(F)cc3F)n(-c3ccncn3)c2C1,"CDK7 with cyclin H, MAT1",kinome panel,,1 µM,,inhibition,-5.2%
C=CC(=O)Nc1cccc(-c2cnc3[nH]cc(C(=O)NC(C)(C)C)c3n2)c1,CDK7,"enzyme activity, inhibitor",,0.1 µM,,inhibition,4%
COc1cc(Nc2nccc(-c3cnn4nc(OC)ccc34)n2)cc(C(F)(F)F)c1,CDK7,"binding, competition with immobilised ligand",,1 µM,,remaining binding,75%
COc1ccc(NC(=O)Nc2ccc3c(c2)C(=O)N(C(C)CO)CC(C)C(CN(C)Cc2ccc4c(c2)OCO4)O3)cc1 (centres unmarked),CDK7,"kinase activity, KinaseProfiler",,"0.03 µM, species human",reference: control,remaining activity,97%
C#CCOC(=O)[C@]1(C)C=C(C(=O)OC(C)(C)C)C(=O)CC1,"CDK7 with cyclin H, MAT1","kinase activity, Kinase-Glo luminescence",,concentration not given,,normalized luminescence,-0.077 and 0.0602 and 0.127
O=C(Nc1cc(-c2ccnc3[nH]ccc23)c(Cl)cn1)[C@H]1CCC[C@@H](NC(=O)C(F)(F)F)C1,CDK7,"binding, competition with immobilised ligand",,0.1 µM,,remaining binding,3.2%
cryptolepine,CDK7,"kinase activity, inhibitor, ADP-Glo",,10 µM,,inhibition,91.4%
CNC(=O)C1CCN(c2cc(C)c(F)cc2NC(=O)c2ccc(-c3cc(O)ccc3C)c(C)c2)CC1,CDK7,"binding, competition with immobilised ligand",,1 µM,,remaining binding,100%
NC(=O)C[C@H]1CCc2sc3ncnc(O[C@H]4CC[C@H](N5CCOCC5)CC4)c3c21,CDK7 with cyclin H,"enzyme activity, inhibitor",,10 µM,,inhibition,16%
O=C=[N][Ru-4]123([n]4c5ccc(O)cc5c5c6c(c7cc(F)c[n+]1c7c54)C(=O)NC6=O)[S+]1CC[S+]2CC[S+]3CC1 (centres unmarked),CDK7,enzyme activity,,"100 nM, human enzyme, with: 10 µM ATP",reference: untreated,remaining activity,114%
CN1C[C@@H](c2c[nH]c3cc(Br)ccc23)NC[C@@H]1c1c[nH]c2cc(Br)ccc12,CDK7 with cyclin H,"enzyme activity, inhibitor",,10 µM,,remaining activity,101%
O=c1cc(-c2ccc(O)cc2)oc2c1ccc1occc12,CDK7 with cyclin H,"enzyme activity, inhibitor, ADP detection",,10 µM,,inhibition,71.3%
Cc1cccc(O[C@H]2CCC[C@@H](C(C)CNCc3ccncc3)C2)c1 (relative stereo),CDK7,"enzyme activity, inhibitor",,10 µM,,inhibition,2%
O=C(O)CCC(=O)c1cccc(NS(=O)(=O)c2c[nH]c3ncccc23)c1,CDK7,"kinase activity, radiometric",,10 µM,,remaining activity,85%
COC(=O)[C@@]1(C)C=C(C(=O)Nc2cccc(C(=O)Nc3ccc(Nc4nccc(-c5cccnc5)n4)c(C)c3)c2)C(=O)CC1,CDK7,"enzyme activity, inhibitor, radiometric",,1 µM,,remaining activity,95%

# For quick reference, copied from above:
Molecule,target,test,system,conditions,scale,endpoint,result
O=c1cc(-c2cccc(O)c2)oc2c1ccc1occc12,CDK7 with cyclin H,"enzyme activity, inhibitor, ADP detection",,10 µM,,inhibition,63.8%
Nc1ncc(-c2cc(-c3cnn(CC(F)(F)F)c3)ncc2F)nc1C(=O)NC1CNCC(F)C1 (centres unmarked),CDK7,enzyme activity,,1 µM,reference: DMSO control,remaining activity,53.8%
